Experimental data collected from several papers.
Compare with care: the assays were run in different laboratories. ± gives the spread as reported.
U2AF2: U2AF2 148-342 (Homo sapiens, UniProt P26368)
UniProt P26368, sequence (whole entry, looked up): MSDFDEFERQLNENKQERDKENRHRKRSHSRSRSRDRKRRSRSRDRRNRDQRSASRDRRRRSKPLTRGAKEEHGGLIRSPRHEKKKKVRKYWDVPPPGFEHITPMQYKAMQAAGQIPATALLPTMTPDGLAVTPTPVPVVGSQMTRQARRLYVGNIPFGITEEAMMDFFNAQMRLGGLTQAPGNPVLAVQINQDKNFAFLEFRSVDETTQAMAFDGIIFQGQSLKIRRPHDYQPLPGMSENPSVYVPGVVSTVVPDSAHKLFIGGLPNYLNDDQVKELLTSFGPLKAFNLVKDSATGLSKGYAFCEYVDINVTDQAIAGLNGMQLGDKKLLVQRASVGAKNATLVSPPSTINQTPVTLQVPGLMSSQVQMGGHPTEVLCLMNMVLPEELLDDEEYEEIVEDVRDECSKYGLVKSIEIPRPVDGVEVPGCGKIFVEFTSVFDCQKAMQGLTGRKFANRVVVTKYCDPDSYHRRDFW
B1: sequence looked up; chain SGPRTLVLLDNLNVRETHSLFFRSLKDRGFELTFKTADDPSLSLIKYGEFLYDNLIIFSPSVEDFGGNINVETISAFIDGGGSVLVAASSDIGDPLRELGSECGIEFDEEKTAVIDHHNYDISDLGQHTLIVADTENLLKAPTIVGKSSLNPILFRGVGMVADPDNPLVLDILTGSSTSYSFFPDKPITQYPHAVGKNTLLIAGLQARNNARVIFSGSLDFFSDSFFNSAVQKAAPGSQRYSQTGNYELAVALSRWVFKEEGVLRVGPVSHHRVGETAPPNAYTVTDLVEYSIVIQQLSNGKWVPFDGDDIQLEFVRIDPFVRTFLKKKGGKYSVQFKLPDVYGVFQFKVDYNRLGYTHLYSSTQVSVRPLQHTQYERFIPSAYPYYASAFSMMLGLFIFSIVFLHMKEKEKSD

MTVCNASQRQAHAQATAVSL — selectivity ratio (H441; phage binding; peptide; relative to: targeting over control phage): 0.8 ± 0.38
EVDPLGLEY — GFP-positive cells (Jurkat expressing engineered TCR; NFAT-eGFP reporter, fluorescence microscopy; peptide; concentration not given, HLA-A*01:01 on EL4 cells): 12.9%
colistin — MIC (Pseudomonas aeruginosa; clinical isolate RKI 369/11): ≤ 1 µg/mL
Talin-1 (human) — log2 fold change (CYB5R4 knockout human cells; PP4 interaction, 3xFLAG-PP4C IP-MS; concentration not given; relative to: CYB5R4 KO over parental): -0.46
GGGCUUACU (ssRNA) — Kd (U2AF2; sequencing of bound RNA; RNA; motif only): 350 nM
epoetin alfa — mRNA level (UT7/EPO; RT-qPCR, item: IRF1; concentration not given, 90 min, normalized to HPRT1; relative to: vehicle): 6.3 fold
human apolipoprotein D — log2 fold change (CYB5R4 knockout human cells; PP4 interaction, 3xFLAG-PP4C IP-MS; concentration not given; relative to: CYB5R4 KO over parental): 3.13
RSDYIPLAY — GFP-positive cells (Jurkat expressing engineered TCR; NFAT-eGFP reporter, fluorescence microscopy; peptide; concentration not given, HLA-A*01:01 on EL4 cells): 0.497%
Peginesatide — EC50 (UT7/EPO; phosphorylation, agonist, item: phospho-STAT5; 10 min): 0.597 nM
human ME2 M75L — Hill coefficient (enzyme activity, NADH absorbance; without fumarate, with: L-malate varied): 1.68 ± 0.1
LIDPIGMIF — GFP-positive cells (Jurkat expressing engineered TCR; NFAT-eGFP reporter, fluorescence microscopy; peptide; concentration not given, HLA-A*01:01 on EL4 cells): 0.438%
B1 — log2 fold change (CYB5R4 knockout human cells; PP4 interaction, 3xFLAG-PP4C IP-MS; concentration not given; relative to: CYB5R4 KO over parental): -0.79
AAAAUGUUUUUUUCUAAGA (ssRNA) — Kd (U2AF2; ITC; RNA): 463 ± 140 nM
